Measurements of several laboratories.

| Structure (SMILES) | assay | test system | conditions | scale | Cmax |
| --- | --- | --- | --- | --- | --- |
| COc1ncc(-c2nc3c(n2C(C)C)[C@H](c2ccc(Cl)cc2)N(c2cc(Cl)cn(C)c2=O)C3=O)c(OC)n1 | LC-MS/MS | human, plasma | oral, 25 mg, cycle 2 day 1, low-dose arm | – | 0.211 µg/mL |
| O=C(O)CCC(=O)O.[2H]C([2H])([2H])Oc1cc(C)c2[nH]ccc2c1CN1CC[C@@H](C2CC2)C[C@H]1c1ccc(C(=O)O)cc1 | LC-MS/MS, geometric mean | human, plasma | 100 mg, single dose, fasting | – | 1.59 µg/mL |
| CO[C@H]1C[C@@H]2CC[C@@H](C)[C@@](O)(O2)C(=O)C(=O)N2CCCC[C@H]2C(=O)O[C@H]([C@H](C)C[C@@H]2CC[C@@H](OC(=O)NCCOCCOCCOCCOCCOCCOCCOCCOCCC(=O)N3CCc4cc(Cn5nc(-c6ccc7oc(N)nc7c6)c6c(N)ncnc65)ccc4C3)[C@H](OC)C2)C[C@@H](O)[C@H](C)/C=C(\C)[C@@H](O)[C@@H](OC)C(=O)[C@H](C)C[C@H](C)/C=C/C=C/C=C/1C | – | human patients, plasma | intravenous, 8 mg, cycle 1 day 15, weekly dosing, mean | – | 0.332 µM |
| CN1C(=O)[C@@H](NC(=O)c2nnc(Cc3ccccc3)[nH]2)COc2cccnc21 | – | human, plasma | oral, 100 mg once daily, day 14, geometric mean | – | 1.72 µg/mL |
| COc1cc(N2CCC(N3CCN(C)CC3)CC2)ccc1Nc1ncnc(Nc2ccccc2S(=O)(=O)C(C)C)n1 | – | human, plasma | oral, 50 mg, day 28 | – | 0.296 µg/mL |
| CCOc1c([C@H](C)n2nc(C)c3c(N)ncnc32)cc(Cl)c(F)c1[C@@H]1CNC(=O)C1 | – | human, B-cell malignancies, plasma | oral, 20 mg, day 15, geometric mean | – | 1.66 µM |
| Cl.[2H]C([2H])([2H])CC(=O)c1cnc(NC(=O)C2CC2)cc1Nc1cccc(-c2ncn(C([2H])([2H])[2H])n2)c1OC | geometric mean | human | oral, 20 mg twice daily, day 14, fasted, tablet, multiple dose | – | 0.287 µg/mL |
| C[C@@H]1CCO[C@H]2Cn3cc(C(=O)NCc4ccc(F)cc4F)c(=O)c(O)c3C(=O)N12 | – | human paediatric patients, weight sample B to under sample C kg, plasma | oral, 20 mg film-coated tablet, steady state, geometric mean, population PK post-hoc, N 2 | – | 2.65 µg/mL |
| C=CCn1c(=O)c2cnc(Nc3ccc(N4CCN(C)CC4)cc3)nc2n1-c1cccc(C(C)(C)O)n1 | – | human | oral, 300 mg once daily, cycle 1 day 17, together with: durvalumab 1500 mg IV | geometric mean | 1.38 µM |

Excerpt of the above:
| Structure (SMILES) | assay | test system | conditions | scale | Cmax |
| --- | --- | --- | --- | --- | --- |
| CO[C@H]1C[C@@H]2CC[C@@H](C)[C@@](O)(O2)C(=O)C(=O)N2CCCC[C@H]2C(=O)O[C@H]([C@H](C)C[C@@H]2CC[C@@H](OC(=O)NCCOCCOCCOCCOCCOCCOCCOCCOCCC(=O)N3CCc4cc(Cn5nc(-c6ccc7oc(N)nc7c6)c6c(N)ncnc65)ccc4C3)[C@H](OC)C2)C[C@@H](O)[C@H](C)/C=C(\C)[C@@H](O)[C@@H](OC)C(=O)[C@H](C)C[C@H](C)/C=C/C=C/C=C/1C | – | human patients, plasma | intravenous, 8 mg, cycle 1 day 15, weekly dosing, mean | – | 0.332 µM |
